Results pooled from the literature.
± gives the spread as reported.
EPHA2: Ephrin type-A receptor 2 (EPHA2, Homo sapiens, UniProt P29317)
Chain of UniProt P29317 (whole entry, looked up): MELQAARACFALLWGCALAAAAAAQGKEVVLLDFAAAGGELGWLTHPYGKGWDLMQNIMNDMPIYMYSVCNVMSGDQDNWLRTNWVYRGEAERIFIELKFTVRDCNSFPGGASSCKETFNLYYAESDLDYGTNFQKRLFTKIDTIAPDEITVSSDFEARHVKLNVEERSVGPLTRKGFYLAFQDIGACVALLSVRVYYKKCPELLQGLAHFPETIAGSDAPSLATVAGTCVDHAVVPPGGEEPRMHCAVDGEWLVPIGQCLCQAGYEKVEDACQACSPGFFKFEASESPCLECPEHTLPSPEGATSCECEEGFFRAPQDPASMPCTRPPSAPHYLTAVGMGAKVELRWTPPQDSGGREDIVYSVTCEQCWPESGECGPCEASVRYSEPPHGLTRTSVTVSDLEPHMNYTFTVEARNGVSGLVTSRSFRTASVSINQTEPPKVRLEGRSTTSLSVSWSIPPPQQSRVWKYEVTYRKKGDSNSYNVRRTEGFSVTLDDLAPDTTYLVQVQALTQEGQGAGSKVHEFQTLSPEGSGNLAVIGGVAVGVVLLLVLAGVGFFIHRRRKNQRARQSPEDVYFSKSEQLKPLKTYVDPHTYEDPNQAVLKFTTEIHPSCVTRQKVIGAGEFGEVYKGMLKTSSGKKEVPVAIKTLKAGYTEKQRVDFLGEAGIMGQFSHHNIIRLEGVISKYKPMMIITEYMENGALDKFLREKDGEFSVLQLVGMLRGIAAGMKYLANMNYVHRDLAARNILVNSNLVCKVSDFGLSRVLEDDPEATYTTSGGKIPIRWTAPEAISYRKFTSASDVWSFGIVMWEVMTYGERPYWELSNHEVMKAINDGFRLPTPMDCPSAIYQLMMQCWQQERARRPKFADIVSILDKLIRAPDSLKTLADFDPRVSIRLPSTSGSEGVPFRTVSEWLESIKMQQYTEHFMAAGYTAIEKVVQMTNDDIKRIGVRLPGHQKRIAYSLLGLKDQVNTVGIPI
GLAA: Glucoamylase (GLAA, Aspergillus niger, UniProt P69328)
Chain of UniProt P69328 (whole entry, looked up): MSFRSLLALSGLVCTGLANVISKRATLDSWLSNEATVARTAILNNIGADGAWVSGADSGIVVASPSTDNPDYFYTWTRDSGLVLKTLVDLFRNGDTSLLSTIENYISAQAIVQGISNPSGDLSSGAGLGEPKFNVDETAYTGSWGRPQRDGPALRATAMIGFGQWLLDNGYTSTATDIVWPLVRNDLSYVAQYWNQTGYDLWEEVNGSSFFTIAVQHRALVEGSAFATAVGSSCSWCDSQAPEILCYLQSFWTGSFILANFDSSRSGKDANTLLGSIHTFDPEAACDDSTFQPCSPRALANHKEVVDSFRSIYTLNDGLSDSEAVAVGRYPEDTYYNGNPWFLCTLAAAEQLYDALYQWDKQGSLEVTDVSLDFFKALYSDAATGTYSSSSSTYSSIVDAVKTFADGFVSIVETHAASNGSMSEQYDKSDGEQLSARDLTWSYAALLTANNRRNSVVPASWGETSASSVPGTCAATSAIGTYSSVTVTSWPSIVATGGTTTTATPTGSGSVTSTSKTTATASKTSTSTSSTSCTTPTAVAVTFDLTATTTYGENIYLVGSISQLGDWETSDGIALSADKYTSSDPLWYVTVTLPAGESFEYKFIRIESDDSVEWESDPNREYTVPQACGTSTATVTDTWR
CNR1: Cannabinoid receptor 1 (CNR1, Homo sapiens, UniProt P21554)
Chain of UniProt P21554 (whole entry, looked up): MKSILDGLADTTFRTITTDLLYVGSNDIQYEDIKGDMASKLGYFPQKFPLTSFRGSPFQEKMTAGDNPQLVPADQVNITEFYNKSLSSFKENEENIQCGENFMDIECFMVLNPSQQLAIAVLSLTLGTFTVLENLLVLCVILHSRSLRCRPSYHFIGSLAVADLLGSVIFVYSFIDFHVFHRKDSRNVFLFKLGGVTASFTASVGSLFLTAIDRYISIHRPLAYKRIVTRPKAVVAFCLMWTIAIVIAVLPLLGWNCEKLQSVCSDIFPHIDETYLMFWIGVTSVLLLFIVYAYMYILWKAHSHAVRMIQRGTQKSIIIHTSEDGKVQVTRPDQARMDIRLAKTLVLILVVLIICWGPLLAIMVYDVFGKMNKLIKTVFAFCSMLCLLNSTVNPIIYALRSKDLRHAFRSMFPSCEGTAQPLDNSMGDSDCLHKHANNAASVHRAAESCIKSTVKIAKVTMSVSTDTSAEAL
XIAP BIR3: E3 ubiquitin-protein ligase XIAP, BIR3 (XIAP, Homo sapiens, UniProt P98170)
Chain of UniProt P98170 (whole entry, looked up): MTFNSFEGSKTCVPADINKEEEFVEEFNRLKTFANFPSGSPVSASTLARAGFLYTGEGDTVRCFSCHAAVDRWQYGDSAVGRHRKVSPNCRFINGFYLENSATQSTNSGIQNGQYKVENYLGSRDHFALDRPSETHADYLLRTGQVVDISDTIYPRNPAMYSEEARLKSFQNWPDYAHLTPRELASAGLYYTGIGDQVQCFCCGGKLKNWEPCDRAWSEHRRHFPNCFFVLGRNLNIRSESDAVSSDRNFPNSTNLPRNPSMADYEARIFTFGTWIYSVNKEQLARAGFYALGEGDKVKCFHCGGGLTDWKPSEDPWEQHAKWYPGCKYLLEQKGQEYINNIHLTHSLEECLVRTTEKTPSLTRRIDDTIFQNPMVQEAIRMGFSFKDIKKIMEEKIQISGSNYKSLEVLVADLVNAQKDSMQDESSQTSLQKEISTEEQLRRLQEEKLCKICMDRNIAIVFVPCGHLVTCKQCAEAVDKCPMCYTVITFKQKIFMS
Na(+)/H(+) exchange regulatory cofactor NHE-RF2 PDZ domain 2: Na(+)/H(+) exchange regulatory cofactor NHE-RF2, PDZ domain 2 (Homo sapiens, UniProt Q15599)
Tspo: Translocator protein (Tspo, Rattus norvegicus, UniProt P16257)
Chain of UniProt P16257 (whole entry, looked up): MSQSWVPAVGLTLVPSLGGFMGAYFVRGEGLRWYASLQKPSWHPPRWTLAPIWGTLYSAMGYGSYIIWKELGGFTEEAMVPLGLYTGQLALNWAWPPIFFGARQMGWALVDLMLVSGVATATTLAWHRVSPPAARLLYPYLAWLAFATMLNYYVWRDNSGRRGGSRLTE
CAPN1: Calpain-1 catalytic subunit (CAPN1, Homo sapiens, UniProt P07384)
Chain of UniProt P07384 (whole entry, looked up): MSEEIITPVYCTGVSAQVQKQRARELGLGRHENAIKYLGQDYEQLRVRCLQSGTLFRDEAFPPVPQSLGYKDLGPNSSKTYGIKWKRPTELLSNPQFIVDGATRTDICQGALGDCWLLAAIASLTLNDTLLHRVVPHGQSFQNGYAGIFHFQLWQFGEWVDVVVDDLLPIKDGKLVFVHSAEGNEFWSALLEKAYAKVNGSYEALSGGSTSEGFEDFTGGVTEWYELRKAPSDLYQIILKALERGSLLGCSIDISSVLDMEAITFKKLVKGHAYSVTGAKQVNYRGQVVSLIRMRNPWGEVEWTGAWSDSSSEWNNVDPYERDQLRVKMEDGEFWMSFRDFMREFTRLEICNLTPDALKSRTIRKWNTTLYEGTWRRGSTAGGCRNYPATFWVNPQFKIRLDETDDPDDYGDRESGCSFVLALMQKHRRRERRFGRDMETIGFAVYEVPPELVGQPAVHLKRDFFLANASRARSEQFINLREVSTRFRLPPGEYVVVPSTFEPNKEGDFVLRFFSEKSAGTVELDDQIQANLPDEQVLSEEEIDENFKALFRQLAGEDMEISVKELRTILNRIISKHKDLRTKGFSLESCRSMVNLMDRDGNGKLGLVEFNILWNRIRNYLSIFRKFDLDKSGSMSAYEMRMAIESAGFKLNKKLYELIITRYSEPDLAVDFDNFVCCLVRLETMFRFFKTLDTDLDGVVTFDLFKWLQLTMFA
Astl: Astacin-like metalloendopeptidase (Astl, Mus musculus, UniProt Q6HA09)
Chain of UniProt Q6HA09 (whole entry, looked up): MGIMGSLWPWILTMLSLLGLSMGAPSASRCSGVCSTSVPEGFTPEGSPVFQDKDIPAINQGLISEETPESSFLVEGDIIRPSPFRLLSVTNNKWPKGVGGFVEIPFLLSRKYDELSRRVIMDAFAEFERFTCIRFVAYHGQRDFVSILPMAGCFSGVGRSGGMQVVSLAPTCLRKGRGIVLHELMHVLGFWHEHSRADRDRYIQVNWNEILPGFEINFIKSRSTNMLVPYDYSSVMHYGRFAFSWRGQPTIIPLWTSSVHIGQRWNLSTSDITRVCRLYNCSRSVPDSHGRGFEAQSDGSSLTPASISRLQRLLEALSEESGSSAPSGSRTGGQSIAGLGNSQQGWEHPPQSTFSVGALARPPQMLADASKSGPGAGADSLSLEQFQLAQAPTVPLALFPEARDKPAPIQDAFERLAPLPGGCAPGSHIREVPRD
Chain of UniProt P35408 (whole entry, looked up): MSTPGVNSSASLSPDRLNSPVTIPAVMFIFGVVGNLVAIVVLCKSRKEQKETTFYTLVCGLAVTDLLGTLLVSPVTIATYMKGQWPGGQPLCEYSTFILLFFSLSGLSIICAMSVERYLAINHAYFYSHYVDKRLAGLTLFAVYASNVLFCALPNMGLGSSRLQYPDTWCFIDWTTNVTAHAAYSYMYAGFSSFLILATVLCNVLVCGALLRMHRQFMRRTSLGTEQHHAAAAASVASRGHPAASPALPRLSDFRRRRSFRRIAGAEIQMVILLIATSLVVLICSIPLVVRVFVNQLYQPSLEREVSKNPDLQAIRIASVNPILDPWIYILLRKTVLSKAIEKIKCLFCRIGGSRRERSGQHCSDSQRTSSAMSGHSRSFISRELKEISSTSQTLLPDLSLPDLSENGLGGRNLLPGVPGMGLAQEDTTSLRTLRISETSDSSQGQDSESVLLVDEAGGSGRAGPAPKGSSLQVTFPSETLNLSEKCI
Chain of UniProt P48546 (whole entry, looked up): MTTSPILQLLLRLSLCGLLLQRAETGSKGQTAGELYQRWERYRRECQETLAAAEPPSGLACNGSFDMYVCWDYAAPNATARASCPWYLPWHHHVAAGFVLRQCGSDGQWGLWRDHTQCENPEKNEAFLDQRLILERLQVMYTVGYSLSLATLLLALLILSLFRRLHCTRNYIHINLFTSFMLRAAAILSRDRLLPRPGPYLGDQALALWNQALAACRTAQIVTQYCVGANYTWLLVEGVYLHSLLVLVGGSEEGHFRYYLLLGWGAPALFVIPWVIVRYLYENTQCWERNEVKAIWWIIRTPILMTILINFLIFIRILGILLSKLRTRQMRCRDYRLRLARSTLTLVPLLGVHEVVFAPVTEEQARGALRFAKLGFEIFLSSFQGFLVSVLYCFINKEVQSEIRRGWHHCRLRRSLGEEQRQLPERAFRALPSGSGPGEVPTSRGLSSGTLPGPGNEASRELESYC

SMILES = CNC(=O)C1CCN(c2cc(C)ccc2NC(=O)c2ccc(-c3cc(O)ccc3C)c(C)c2)CC1; target = EPHA2; assay = enzyme activity, inhibitor; Ki = 0.001 µM
SMILES = CC(C)c1ccc(C(=O)Nc2ccc(CN)cc2)c(O)c1; target = Transmembrane protease serine 2 (TMPRSS2, Homo sapiens, UniProt O15393); assay = enzyme activity, inhibitor, fluorescence; Ki = 0.7 µM
SMILES = CNC(=O)C1CCN(c2ccccc2NC(=O)c2ccc(-c3ccnc4[nH]ccc34)c(C)c2)CC1; target = EPHA2; Ki = > 0.25 µM
SMILES = O=C(O)COc1cccc(NC(=O)c2cc(-c3cccc(F)c3)ccc2F)c1; target = Prostaglandin E2 receptor EP4 subtype (PTGER4, Homo sapiens, UniProt P35408); assay = ligand displacement, radioligand; setting = cell membranes; Ki = 1.26 µM
SMILES = CCCCCCCC[C@@H]1[C@H](O)[C@@H](O)[C@H](O)[C@H]2CS/C(=N/CCCC)N12; target = GLAA; assay = enzyme activity, inhibitor; Ki = 842 µM
SMILES = CN(C)CC#Cc1ccc(OCCCc2sc(N3CCc4cccc(C(=O)Nc5nc6ccccc6s5)c4C3)nc2C(=O)O)c(F)c1; target = Bcl-2-like protein 1 (BCL2L1, Homo sapiens, UniProt Q07817); assay = cell-free assay, TR-FRET; Ki = < 1e-05 µM
SMILES = CC[C@H](C)[C@H](NC(=O)[C@H](CO)NC(=O)[C@H](Cc1ccc(O)cc1)NC(=O)[C@H](CC(=O)O)NC(=O)[C@H](CO)NC(=O)[C@@H](NC(=O)[C@H](Cc1ccccc1)NC(=O)[C@@H](N)[C@@H](C)O)[C@@H](C)CC)C(=O)N[C@@H](C)C(=O)N[C@@H](CCSC)C(=O)N[C@@H](CC(=O)O)C(=O)N[C@@H](CCCCN)C(=O)N[C@H](C(=O)N[C@@H](Cc1c[nH]cn1)C(=O)N[C@@H](CCC(N)=O)C(=O)N[C@@H](CCC(N)=O)C(=O)N[C@@H](CC(=O)O)C(=O)N[C@@H](Cc1ccccc1)C(=O)N[C@H](C(=O)N[C@@H](CC(N)=O)C(=O)N[C@@H](Cc1c[nH]c2ccccc12)C(=O)N[C@@H](CC(C)C)C(=O)N[C@@H](CC(C)C)C(=O)N[C@@H](C)C(=O)N[C@@H](CCC(N)=O)C(=O)N[C@@H](CCCCN)C(N)=O)C(C)C)[C@@H](C)CC; target = Gastric inhibitory polypeptide receptor (GIPR, Homo sapiens, UniProt P48546); assay = antagonist, Schild analysis, item: cAMP; system = COS-7 transfected; setting = 10 min preincubation, together with: GIP(1-42); Ki = 0.0152 µM
SMILES = CC(=O)c1cccc(NC(=O)c2nc(-c3ccccc3)n(-c3cccc(C)c3)n2)c1; target = CNR1; assay = cell-free assay; Ki = 4.62 µM
SMILES = CN[C@@H](C)C(=O)N[C@H]1CN(C(=O)Cc2ccccc2)CC[C@H]2CC[C@@H](C(=O)NCc3ccc(F)cc3)N2C1=O; target = XIAP BIR3; assay = ligand displacement, FP; Ki = 0.393 µM
SMILES = CC[C@H](C)[C@H](NC(=O)[C@@H](NC(=O)[C@H](CO)NC(=O)[C@@H](NC(=O)[C@@H]1CCCN1C(=O)[C@H](Cc1c[nH]c2ccccc12)NC(=O)[C@@H](N)CS)[C@@H](C)O)[C@@H](C)CC)C(=O)O; target = Na(+)/H(+) exchange regulatory cofactor NHE-RF2 PDZ domain 2; assay = binding to PDZ2 domain, inhibitor, fluorescence polarization; Ki = > 5000 µM
SMILES = CNC(=O)[C@@]12C[C@@H]1[C@@H](n1cnc3c(NCc4cccc(Cl)c4)nc(C#Cc4cccc(Cl)c4)nc31)[C@H](O)[C@@H]2O; target = Tspo; assay = ligand displacement, radioligand; Ki = 1.77 µM
SMILES = CCC(NC(=O)C(CC(C)C)NC(=O)CCc1ccccc1)C(=O)C(=O)NCc1cc(F)cc(OC)c1 (centres unmarked); target = CAPN1; assay = enzyme activity, inhibitor, fluorescence; Ki = 0.47 µM
SMILES = CC(Oc1cc(-c2ccccc2)nc2ccncc12)C(=O)N(C)c1ccccc1 (centres unmarked); target = Tspo; assay = binding, radioligand displacement; system = rat brain homogenate; Ki = 0.0006 ± 0.0001 µM
SMILES = O=C(N/N=C/c1cc(Br)c(O)c(Br)c1O)C(=O)Nc1ccc2ccccc2c1; target = Cystic fibrosis transmembrane conductance regulator (CFTR, Homo sapiens, UniProt P13569); assay = chloride current, inhibitor, short-circuit current; system = FRT; setting = basolateral membrane permeabilized; Ki = 2.7 µM
SMILES = CCC(NC(=O)C(CC(C)C)NC(=O)NCc1ccccc1)C(=O)C(=O)NCc1cc(F)cc(OC)c1 (centres unmarked); target = CAPN1; assay = enzyme activity, inhibitor, fluorescence; Ki = 0.072 µM
SMILES = CCCCCCCCN=C1SC[C@@H]2[C@@H](O)[C@H](O)[C@@H](O)[C@@H](CCCCCCCC)N12; target = GLAA; assay = enzyme activity, inhibitor; Ki = 305 µM
SMILES = CCC(NC(=O)C(CC(C)C)NC(=O)NCc1ccccc1)C(=O)C(=O)NCc1cc(OC)cc(OC)c1 (centres unmarked); target = Calpain-2 catalytic subunit (Homo sapiens, UniProt P17655); assay = enzyme activity, inhibitor, fluorescence; Ki = 0.072 µM
SMILES = CNC(=O)C1CCN(C(=O)CCC(=O)N(CC(C)(C)C)c2ccc(Cl)cc2C(O)c2ccccc2Cl)CC1 (centres unmarked); target = Squalene synthase (Homo sapiens, UniProt P37268); assay = binding, fluorescence polarization competition; setting = unknown site tracer; Ki = 0.3 µM
SMILES = CCC(NC(=O)C(CC(C)C)NC(=O)CCc1ccncc1)C(=O)C(=O)NCc1cc(OC)cc(OC)c1 (centres unmarked); target = CAPN1; assay = enzyme activity, inhibitor, fluorescence; Ki = 0.061 µM
SMILES = CCOC(=O)[C@](CC)(CCCSCCOCCOCCNC(=O)c1ccc(C(=O)[O-])c(C2=C3C=CC(=[N+](C)C)C=C3[Si](C)(C)c3cc(N(C)C)ccc32)c1)NC(=O)c1ccc(C2CC2)c(Cc2ccc(F)cc2)n1; target = CNR1; assay = ligand displacement, radioligand; setting = cell membranes; Ki = 0.114 µM
SMILES = O=C(CN(Cc1ccc(Cl)c(O)c1F)Cc1ccc(Cl)c(O)c1F)NO; target = Astl; assay = enzyme activity, inhibitor, fluorogenic; setting = pH 7.4, 37 °C, apparent Ki, Morrison equation, together with: 25 µM substrate; Ki = 0.81 ± 0.37 µM
SMILES = CN[C@@H](C)C(=O)N[C@H]1CN(C(=O)Cc2ccccc2)CC[C@H]2CC[C@@H](C(=O)NCc3ccccc3Cl)N2C1=O; target = XIAP BIR3; assay = ligand displacement, FP; Ki = 1.46 µM
SMILES = CCC[C@@H]1[C@H](O)[C@@H](O)[C@H](O)[C@@H](CO)N1C(=S)NCCc1ccccc1; target = bglA (Thermotoga maritima, UniProt Q08638); assay = competitive inhibitor; setting = together with: p-nitrophenyl glucopyranoside; Ki = > 2000 µM
SMILES = CNC(=O)C1CCN(c2cc(C)c(F)cc2NC(=O)c2ccc(-c3cc(O)ccc3C)c(C)c2)CC1; target = EPHA2; assay = cell-free assay, TR-FRET; Ki = 0.004 µM
SMILES = Cc1ncsc1-c1ccc(CNC(=O)[C@@H]2C[C@@H](O)CN2C(=O)[C@@H](NC(=O)OC(C)(C)C)C(C)(C)C)cc1; target = von Hippel-Lindau disease tumor suppressor, with elongin B/C (VHL, Homo sapiens, UniProt P40337); Ki = 2.1 µM
SMILES = [N-]=[N+]=N[C@H]1C[C@H](n2cnc3c(N)ncnc32)O[C@@H]1COP(=O)(O)OP(=O)(O)OP(=O)(O)O; target = Telomerase reverse transcriptase (TERT, Homo sapiens, UniProt O14746); assay = enzyme activity, inhibitor; Ki = 4.8 µM
SMILES = CCC[C@@H]1[C@H](O)[C@@H](O)[C@H](O)[C@@H](CO)N1C(=S)NCc1ccccc1; target = GLAA; assay = enzyme activity, inhibitor; Ki = 154 µM
SMILES = CC(C)C[C@@H]1NC(=O)[C@H](C)NC(=O)[C@H](CC2CCN(C(=N)N)CC2)NC(=O)[C@H](CO)NC(=O)[C@H](CCCNC(=N)N)NC(=O)[C@H](CCCCN)NC(=O)[C@@H]2CCCN2C(=O)[C@@H](N)CSSC[C@@H](C(=O)O)NC(=O)[C@H](Cc2ccccc2)NC1=O; target = Plasminogen (PLG, Homo sapiens, UniProt P00747); assay = enzyme activity, inhibitor, absorbance; setting = pH 7.4; Ki = 12.5 µM
SMILES = CC[C@H](C)[C@H](NC(=O)[C@H](CCCCN)NC(=O)[C@H](CO)NC(=O)[C@@H](NC(=O)[C@H](CCC(N)=O)NC(=O)[C@H](CCSC)NC(=O)[C@@H](N)CS)[C@@H](C)O)C(=O)O; target = Na(+)/H(+) exchange regulatory cofactor NHE-RF2 PDZ domain 2; assay = binding to PDZ2 domain, inhibitor, fluorescence polarization; Ki = 109 ± 10 µM
SMILES = COC(=O)c1ccc(-n2nc(C(F)(F)F)cc2-c2cc(OC)c(OC)c(OC)c2)cc1; target = tubulin (goat); assay = colchicine binding, fluorescence competition; setting = 37 °C, together with: colchicine 5 µM; Ki = 2.2 ± 0.5 µM
SMILES = CCCC/N=C1/SC[C@@H]2[C@@H](O)[C@H](O)[C@@H](O)[C@@H](CCC)N12; target = GLAA; assay = enzyme activity, competitive inhibitor; setting = optimal pH, together with: p-nitrophenyl glycopyranoside; Ki = > 2000 µM
SMILES = COc1ccc(CN(CC(=O)NO)Cc2cccc(C(=O)O)c2)cc1; target = Astl; assay = enzyme activity, inhibitor, fluorogenic; setting = pH 7.4, 37 °C, apparent Ki, Morrison equation, together with: 25 µM substrate; Ki = 6.33 ± 0.31 µM

For quick reference, copied from above:
SMILES = CCOC(=O)[C@](CC)(CCCSCCOCCOCCNC(=O)c1ccc(C(=O)[O-])c(C2=C3C=CC(=[N+](C)C)C=C3[Si](C)(C)c3cc(N(C)C)ccc32)c1)NC(=O)c1ccc(C2CC2)c(Cc2ccc(F)cc2)n1; target = CNR1; assay = ligand displacement, radioligand; setting = cell membranes; Ki = 0.114 µM
SMILES = O=C(CN(Cc1ccc(Cl)c(O)c1F)Cc1ccc(Cl)c(O)c1F)NO; target = Astl; assay = enzyme activity, inhibitor, fluorogenic; setting = pH 7.4, 37 °C, apparent Ki, Morrison equation, together with: 25 µM substrate; Ki = 0.81 ± 0.37 µM
SMILES = CN[C@@H](C)C(=O)N[C@H]1CN(C(=O)Cc2ccccc2)CC[C@H]2CC[C@@H](C(=O)NCc3ccccc3Cl)N2C1=O; target = XIAP BIR3; assay = ligand displacement, FP; Ki = 1.46 µM
SMILES = CCC[C@@H]1[C@H](O)[C@@H](O)[C@H](O)[C@@H](CO)N1C(=S)NCCc1ccccc1; target = bglA (Thermotoga maritima, UniProt Q08638); assay = competitive inhibitor; setting = together with: p-nitrophenyl glucopyranoside; Ki = > 2000 µM
SMILES = CNC(=O)C1CCN(c2cc(C)c(F)cc2NC(=O)c2ccc(-c3cc(O)ccc3C)c(C)c2)CC1; target = EPHA2; assay = cell-free assay, TR-FRET; Ki = 0.004 µM
